# Measured values pooled from the literature.
# Compare with care: the assays were run in different laboratories. ± gives the spread as reported.
Structure (SMILES),test,system,setting,half-life [min]
COc1ccc(-n2cc(C(=O)N3C[C@]4(OC(=O)c5ccccc5NC(C)=O)CC[C@H](OC)[C@@]56[C@@H]4C[C@@H]([C@@H]35)[C@@]3(O)C[C@H](OC)[C@H]4C[C@@H]6[C@]3(O)[C@H]4OC)nn2)cc1,,"rat Sprague-Dawley, plasma","intravenous, 2 mg/kg",20.8
CCN1CC2(COC)C(O)CC(OC)C34C5CC6(O)C(OC)C(O)C(O)(C5C6OC(=O)c5ccccc5)C(C(OC)C23)C14 (centres unmarked),,"Sprague-Dawley rat, plasma","oral, dose not given, in PCW extract",323 ± 118
CCCC[C@@H]1NC(=O)[C@H](Cc2ccc(O)cc2)NC(=O)[C@@H]2CCCN2C(=O)[C@H](CC(=O)O)NC(=O)[C@H](C)NC(=O)[C@H](Cc2ccccc2)NC(=O)[C@@H]2CSCCC(=O)N3CN(CN(C3)C(=O)CCSC[C@@H](C(=O)N[C@@H](C)C(N)=O)NC1=O)C(=O)CCSC[C@H](NC(C)=O)C(=O)N[C@@H](CC(C)(C)C)C(=O)N1CCC[C@H]1C(=O)N[C@@H](CCC(=O)O)C(=O)N[C@H](CCCCNC(=O)CCc1cn(CCOCCOCCOCCN(CCOCCOCCOCCC(=O)N[C@H]3CSCCC(=O)N4CN5CN(C4)C(=O)CCSC[C@H](NC(=O)[C@@H](CC(=O)O)NC(=O)[C@H](Cc4cccc6ccccc46)NC(=O)[C@@H]4CCCN4C3=O)C(=O)N[C@@H](CCSC)C(=O)N[C@@H](CCCCNC(=N)N)C(=O)N[C@@H](CC(=O)O)C(=O)N[C@@H](Cc3c[nH]c4ccccc34)C(=O)N[C@@H](CO)C(=O)N[C@@H]([C@@H](C)O)C(=O)N3CCC[C@H]3C(=O)N3C[C@H](O)C[C@H]3C(=O)N[C@@H](Cc3c[nH]c4ccccc34)C(=O)N[C@H](C(N)=O)CSCCC5=O)CCOCCOCCOCCn3cc(CCC(=O)NCCCC[C@H]4NC(=O)[C@H](CCC(=O)O)NC(=O)[C@@H]5CCCN5C(=O)[C@H](CC(C)(C)C)NC(=O)[C@@H](NC(C)=O)CSCCC(=O)N5CN6CN(C5)C(=O)CCSC[C@H](NC(=O)[C@H](Cc5ccc(O)cc5)NC(=O)[C@@H]5CCCN5C4=O)C(=O)N[C@@H](Cc4ccccc4)C(=O)N[C@@H](C)C(=O)N[C@@H](CC(=O)O)C(=O)N4CCC[C@H]4C(=O)N[C@@H](Cc4ccc(O)cc4)C(=O)N[C@@H](CCCC)C(=O)N[C@H](C(=O)N[C@@H](C)C(N)=O)CSCCC6=O)nn3)nn1)C(=O)N1CCC[C@H]1C(=O)N[C@@H](Cc1ccc(O)cc1)C(=O)N2,,Sprague-Dawley rat,,216 ± 36
CSCC[C@@H]1NC(=O)[C@H](C(C)C)NC(=O)[C@H](CCCNC(=N)N)NC(=O)CNC(=O)[C@@H]2CCCN2C(=O)[C@@H](NC(=O)CNC(=O)[C@H](CO)NC(=O)CNC(=O)[C@H](CO)NC(=S)Nc2ccc(C[C@H]3CN(CC(=O)O)CCN(CC(=O)O)CCN3CC(=O)O)cc2)CSSC[C@@H](C(N)=O)NC(=O)[C@@H]2CCCN2C(=O)CNC(=O)[C@H](CCC(=O)O)NC(=O)[C@H](CC(=O)O)NC(=O)[C@H](CC(=O)O)NC(=O)CNC(=O)[C@H](CC(C)C)NC(=O)[C@H](Cc2c[nH]cn2)NC(=O)[C@H](CC(C)C)NC(=O)CNC(=O)[C@H](Cc2c[nH]cn2)NC1=O [copper-64 labelled],dynamic PET,"CD rat, myocardial infarction model, remote myocardium","intravenous, 18.5 MBq, 0 to 5 min",2.4 ± 0.1
COCC12CCC(OC)C34C5CC6(O)C(OC)C(O)C(O)(C5C6OC(=O)c5ccccc5)C(C(OC)C13)C4N(C)C2 (centres unmarked),,"Sprague-Dawley rat, plasma","oral, dose not given, in PCW extract",263 ± 32
O=C(O)/C=C\c1ccc2occc2c1O[C@@H]1O[C@H](CO)[C@@H](O)[C@H](O)[C@H]1O,,"rat, plasma","oral, 500 mg/kg Eu + 217 mg/kg Pc extract, dosed as combined Eu and Pc extracts",165 ± 30
C=C/C=C/C[C@@H](C)[C@@H](O)[C@H]1C(=O)N[C@@H](CC)C(=O)N(C)CC(=O)N(C)[C@@H](CC(C)C)C(=O)N[C@@H](C(C)C)C(=O)N(C)[C@@H](CC(C)C)C(=O)N[C@@H](C)C(=O)N[C@H](C)C(=O)N(C)[C@@H](CC(C)C)C(=O)N(C)[C@@H](CC(C)C)C(=O)N(C)[C@@H](C(C)C)C(=O)N1C,LC-MS/MS,"rat, Wistar Kyoto, male, whole blood","intraperitoneal, 0.4 mg/kg single dose",684 ± 126
NC1CCN(C(=O)Oc2ccc(C3CCCC4(C3)OOC3(O4)C4CC5CC(C4)CC3C5)cc2)CC1 (racemic),,"male Sprague-Dawley rats, plasma","intravenous, 10 mg/kg",~600

# Some of these lines once more:
Structure (SMILES),test,system,setting,half-life [min]
O=C(O)/C=C\c1ccc2occc2c1O[C@@H]1O[C@H](CO)[C@@H](O)[C@H](O)[C@H]1O,,"rat, plasma","oral, 500 mg/kg Eu + 217 mg/kg Pc extract, dosed as combined Eu and Pc extracts",165 ± 30
